# Earlier results as cited in several papers.
# Each line is one published result; not all experiments were run side by side. Several values in a cell are separate wells, animals, samples, runs or records. ± marks the error that the study gave.
# BCHE: Cholinesterase (BCHE, Homo sapiens, UniProt P06276)
# Sequence of UniProt P06276 (whole entry, looked up): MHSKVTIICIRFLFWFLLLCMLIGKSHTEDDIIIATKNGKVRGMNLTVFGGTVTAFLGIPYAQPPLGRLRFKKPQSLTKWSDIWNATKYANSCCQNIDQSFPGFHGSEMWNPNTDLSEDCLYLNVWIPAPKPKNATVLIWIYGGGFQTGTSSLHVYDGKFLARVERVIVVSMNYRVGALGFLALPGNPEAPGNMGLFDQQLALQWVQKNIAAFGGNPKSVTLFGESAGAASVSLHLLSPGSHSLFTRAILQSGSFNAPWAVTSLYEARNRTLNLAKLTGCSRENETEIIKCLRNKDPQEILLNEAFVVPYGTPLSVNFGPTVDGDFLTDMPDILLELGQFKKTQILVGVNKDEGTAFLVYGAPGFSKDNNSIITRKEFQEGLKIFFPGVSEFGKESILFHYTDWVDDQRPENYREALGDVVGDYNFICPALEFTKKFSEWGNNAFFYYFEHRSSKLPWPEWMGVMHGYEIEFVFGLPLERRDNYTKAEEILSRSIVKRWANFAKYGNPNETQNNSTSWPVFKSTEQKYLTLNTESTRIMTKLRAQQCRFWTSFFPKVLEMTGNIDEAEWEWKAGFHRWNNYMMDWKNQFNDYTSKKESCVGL
# pyrG: pyrG (Escherichia coli, UniProt P0A7E5)
# Sequence of UniProt P0A7E5 (whole entry, looked up): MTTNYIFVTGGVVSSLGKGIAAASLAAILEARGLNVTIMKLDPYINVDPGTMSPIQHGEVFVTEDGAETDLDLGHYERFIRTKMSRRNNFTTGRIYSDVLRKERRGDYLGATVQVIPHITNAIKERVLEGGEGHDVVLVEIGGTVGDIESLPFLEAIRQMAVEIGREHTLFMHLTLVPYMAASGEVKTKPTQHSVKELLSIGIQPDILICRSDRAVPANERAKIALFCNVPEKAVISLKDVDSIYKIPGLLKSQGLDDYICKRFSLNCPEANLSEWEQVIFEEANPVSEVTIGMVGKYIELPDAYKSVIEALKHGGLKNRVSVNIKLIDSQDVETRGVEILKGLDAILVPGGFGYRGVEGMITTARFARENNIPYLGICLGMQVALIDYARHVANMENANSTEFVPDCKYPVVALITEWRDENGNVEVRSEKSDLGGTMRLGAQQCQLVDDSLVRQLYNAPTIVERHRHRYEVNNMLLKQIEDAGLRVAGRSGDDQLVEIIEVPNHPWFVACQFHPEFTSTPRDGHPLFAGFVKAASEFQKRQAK
# lasR: Transcriptional activator protein LasR (lasR, Pseudomonas aeruginosa, UniProt P25084)
# Sequence of UniProt P25084 (whole entry, looked up): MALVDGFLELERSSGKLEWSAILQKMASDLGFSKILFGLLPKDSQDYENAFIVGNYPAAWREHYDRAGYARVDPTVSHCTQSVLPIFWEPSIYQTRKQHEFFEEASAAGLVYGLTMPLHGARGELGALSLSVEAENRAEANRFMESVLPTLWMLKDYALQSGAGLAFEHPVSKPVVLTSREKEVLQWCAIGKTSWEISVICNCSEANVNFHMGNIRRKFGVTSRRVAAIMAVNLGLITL
# BRD4 BD1: Bromodomain-containing protein 4, BD1 (BRD4, Homo sapiens, UniProt O60885)
# Sequence of UniProt Q9H2X3 (whole entry, looked up): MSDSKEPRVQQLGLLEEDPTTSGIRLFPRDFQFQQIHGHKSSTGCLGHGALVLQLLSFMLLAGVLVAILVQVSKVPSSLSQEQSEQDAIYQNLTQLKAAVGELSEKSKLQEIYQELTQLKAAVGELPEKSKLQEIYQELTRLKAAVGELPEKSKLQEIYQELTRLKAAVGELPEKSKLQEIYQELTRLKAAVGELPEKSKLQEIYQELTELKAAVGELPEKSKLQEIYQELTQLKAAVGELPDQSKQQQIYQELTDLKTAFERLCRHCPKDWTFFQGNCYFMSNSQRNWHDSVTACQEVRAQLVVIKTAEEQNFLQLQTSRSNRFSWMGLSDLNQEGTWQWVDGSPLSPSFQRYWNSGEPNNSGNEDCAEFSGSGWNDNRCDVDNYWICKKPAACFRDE
# Sequence of UniProt P31941 (whole entry, looked up): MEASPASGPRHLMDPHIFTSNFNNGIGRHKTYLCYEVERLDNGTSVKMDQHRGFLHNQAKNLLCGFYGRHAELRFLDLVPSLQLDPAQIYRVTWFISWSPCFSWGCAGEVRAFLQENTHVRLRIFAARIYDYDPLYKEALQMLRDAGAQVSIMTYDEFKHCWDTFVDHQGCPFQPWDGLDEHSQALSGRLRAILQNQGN
# Sequence of UniProt P22303 (whole entry, looked up): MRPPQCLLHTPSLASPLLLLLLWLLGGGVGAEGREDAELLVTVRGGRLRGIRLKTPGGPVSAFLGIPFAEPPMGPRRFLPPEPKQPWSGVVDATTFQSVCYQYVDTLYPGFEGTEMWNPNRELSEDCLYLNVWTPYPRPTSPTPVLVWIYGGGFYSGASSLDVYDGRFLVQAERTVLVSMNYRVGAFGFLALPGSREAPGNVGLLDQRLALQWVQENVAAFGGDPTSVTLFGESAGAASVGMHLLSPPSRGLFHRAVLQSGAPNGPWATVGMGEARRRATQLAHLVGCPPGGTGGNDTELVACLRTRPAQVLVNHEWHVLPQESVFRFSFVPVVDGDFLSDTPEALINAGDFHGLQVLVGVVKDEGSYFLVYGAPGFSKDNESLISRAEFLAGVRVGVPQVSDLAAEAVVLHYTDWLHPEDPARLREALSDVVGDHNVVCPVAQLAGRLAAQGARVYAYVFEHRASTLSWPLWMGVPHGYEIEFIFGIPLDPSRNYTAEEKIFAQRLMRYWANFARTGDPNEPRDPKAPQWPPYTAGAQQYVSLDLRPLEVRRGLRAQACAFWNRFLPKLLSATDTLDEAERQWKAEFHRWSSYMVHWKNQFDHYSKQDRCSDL
# Sequence of UniProt P53341 (whole entry, looked up): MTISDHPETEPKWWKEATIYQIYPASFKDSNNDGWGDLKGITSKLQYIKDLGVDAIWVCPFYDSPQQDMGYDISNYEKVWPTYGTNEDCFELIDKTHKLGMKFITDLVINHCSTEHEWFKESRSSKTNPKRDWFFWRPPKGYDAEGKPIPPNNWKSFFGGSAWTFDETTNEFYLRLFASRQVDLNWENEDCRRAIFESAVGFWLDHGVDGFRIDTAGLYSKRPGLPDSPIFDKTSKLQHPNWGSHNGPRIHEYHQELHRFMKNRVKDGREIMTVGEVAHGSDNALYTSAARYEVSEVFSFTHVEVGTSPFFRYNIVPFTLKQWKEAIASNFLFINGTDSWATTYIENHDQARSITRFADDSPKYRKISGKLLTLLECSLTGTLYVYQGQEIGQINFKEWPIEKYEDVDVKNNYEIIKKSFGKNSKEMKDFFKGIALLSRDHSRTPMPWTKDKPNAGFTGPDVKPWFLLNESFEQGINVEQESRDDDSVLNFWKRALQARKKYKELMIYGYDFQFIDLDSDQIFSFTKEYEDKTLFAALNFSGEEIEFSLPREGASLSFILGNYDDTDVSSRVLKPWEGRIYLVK
# Sequence of UniProt P28335 (whole entry, looked up): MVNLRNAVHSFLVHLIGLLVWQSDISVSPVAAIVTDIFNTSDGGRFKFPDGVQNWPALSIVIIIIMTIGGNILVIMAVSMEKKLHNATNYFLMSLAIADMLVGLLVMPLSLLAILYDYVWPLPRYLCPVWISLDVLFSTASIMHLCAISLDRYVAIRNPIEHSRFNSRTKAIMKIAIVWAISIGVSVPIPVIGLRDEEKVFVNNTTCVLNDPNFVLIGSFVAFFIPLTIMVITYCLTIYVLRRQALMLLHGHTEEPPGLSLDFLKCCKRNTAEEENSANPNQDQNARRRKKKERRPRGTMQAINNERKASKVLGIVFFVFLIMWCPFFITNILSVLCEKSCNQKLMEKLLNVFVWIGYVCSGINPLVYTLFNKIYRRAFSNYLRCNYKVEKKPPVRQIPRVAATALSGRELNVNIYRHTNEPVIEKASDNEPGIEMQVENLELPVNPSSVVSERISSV
Compound,tested on,assay,test system,setting,quantity,result
CC[C@H](C)[C@H](NC(=O)CNC(=O)[C@H](CC(=O)O)NC(=O)[C@H](CCCNC(=N)N)NC(=O)[C@@H](NC(=O)[C@H](CC(N)=O)NC(=O)[C@H](CCCNC(=N)N)NC(=O)CNC(=O)[C@@H](NC(=O)[C@H](CCCCN)NC(=O)[C@H](CCC(=O)O)NC(=O)[C@H](CC(C)C)NC(=O)[C@H](CCCCN)NC(=O)[C@H](CCCCN)NC(=O)[C@H](Cc1c[nH]c2ccccc12)NC(=O)[C@H](CO)NC(=O)[C@@H]1CCCN1)C(C)C)[C@@H](C)CC)C(=O)N[C@H](C(=O)N[C@@H](CCCCN)C(=O)N[C@@H](C)C(=O)NCC(=O)N1CCC[C@H]1C(=O)N[C@H](C(=O)N[C@H](C(=O)N[C@@H](CCC(=O)O)C(=O)N[C@H](C(=O)N[C@@H](CC(C)C)C(=O)NCC(=O)O)C(C)C)C(C)C)C(C)C)[C@@H](C)CC,Staphylococcus aureus,,,,MIC,64 µM
O=C(COc1ccc(C(c2c(O)c3ccccc3oc2=O)c2c(O)c3ccccc3oc2=O)cc1)Nc1ccc(Br)cc1,"MAL12 (Saccharomyces cerevisiae S288c, UniProt P53341)",inhibitor,,,IC50,41.73 ± 0.36 µM
CC(C)[C@@H](Nc1nc(Cl)nc2c1ncn2[C@H]1[C@H](O)[C@H](O)[C@]2(CO)C[C@H]12)C1CC1,"HTR2C (Homo sapiens, UniProt P28335)",binding,,with: [3H]mesulergine,Ki,0.186 µM
CN(C)/C=C/C(=O)c1cc2ccc(Oc3cn(Cc4ccc(F)c(F)c4)nn3)cc2oc1=O,BCHE,inhibitor,,,IC50,21.7 µM
Nc1ccn(C2OC(COP(=O)(O)OP(=O)(O)OP(=O)(O)O)C(O)C2F)c(=O)n1 (stereo not shown),pyrG,"enzyme activity, inhibitor",,"wild type, with: UTP 0.20 mM",IC50,43 µM
O=C(Cc1ccc(Br)cc1)N[C@H]1CCOC1=O,lasR,"reporter gene, antagonist, lasI-lacZ reporter",Escherichia coli,,IC50,6 µM
Cc1nnc(CC2N=C(c3ccc(Cl)cc3)c3ccccc3-n3c(C)nnc32)o1 (stereo not shown),BRD4 BD1,biochemical,,bromodomain 1,IC50,0.02 µM
CCC(=O)OC1C(=O)C2(C)C(O)CC3OCC3(OC(C)=O)C2C(OC(=O)c2cccc(OC(F)(F)F)c2)C2(O)CC(OC(=O)C(O)C(C=C(C)C)NC(=O)OC(C)(C)C)C(C)=C1C2(C)C (stereo not shown),HCT-116,cytotoxicity,,,IC50,0.00168 µM
CC[C@H](C)[C@H](NC(=O)CNC(=O)[C@H](CS)NC(=O)CNC(=O)[C@H](CO)NC(=O)[C@@H](NC(=O)[C@@H](NC(=O)[C@@H](NC(=O)[C@H](CC(N)=O)NC(=O)[C@@H](NC(=O)[C@H](CO)NC(=O)[C@H](CS)NC(=O)[C@H](C)NC(=O)[C@H](Cc1ccccc1)NC(=O)[C@H](CCCNC(=N)N)NC(=O)[C@H](CS)NC(=O)[C@H](CCCCN)NC(=O)[C@@H](NC(=O)CNC(=O)[C@@H](N)CO)[C@@H](C)CC)[C@@H](C)CC)[C@@H](C)O)[C@@H](C)O)[C@@H](C)CC)C(=O)N[C@@H](CO)C(=O)N[C@@H](CS)C(=O)N[C@@H](CCCCN)C(=O)N[C@@H](Cc1ccccc1)C(=O)O,Pseudomonas aeruginosa,,,,MIC,16 µM
CCCCCCCCCNC(=O)CC(=O)c1ccccc1,lasR,"reporter gene, antagonist, rsaL-yfp reporter",PAO-MW1,,IC50,10 µM
NCc1cn([C@@H]2[C@@H](OCCCl)O[C@H](CO)[C@@H](O)[C@@H]2O)nn1,"C-type lectin domain family 4 member M, extracellular domain (CLEC4M, Homo sapiens, UniProt Q9H2X3)","binding to SARS-CoV-2 spike, inhibitor, surface plasmon resonance",,with: spike surface 1913 RU,IC50,271 ± 21.1 µM
O=C(/C=C/c1ccc(OCc2ccc([N+](=O)[O-])cc2)cc1)NCCc1c[nH]c2ccccc12,BCHE,,,,IC50,0.55 ± 0.04 µM
NC(Cc1cc(O)c(O)cc1O)C(=O)O (stereo not shown),"DNA dC->dU-editing enzyme APOBEC-3A (Homo sapiens, UniProt P31941)",,,,IC50,0.3 µM
Nc1ccn(C2OC(COP(=O)(O)OP(=O)(O)OP(=O)(O)O)C(O)C2(F)F)c(=O)n1 (stereo not shown),pyrG,"enzyme activity, inhibitor",,"wild type, with: UTP 0.05 mM",IC50,1.2 µM and ~1.2 µM
Cc1ccc(NC(=O)Cn2cc(COc3ccccc3C=O)nn2)cc1C,"ACHE (Homo sapiens, UniProt P22303)",inhibitor,,,IC50,0.458 µM
Cc1noc(C)c1-c1ccc(=O)n(Cc2ccc(C3CO3)c(F)c2)c1 (stereo not shown),BRD4 BD1,biochemical,,bromodomain 1,IC50,0.16 µM
CCC(=O)OC1C(=O)C2(C)C(O)CC3OCC3(OC(C)=O)C2C(OC(=O)c2cccc(OC(F)F)c2)C2(O)CC(OC(=O)C(O)C(C=C(C)C)NC(=O)OC(C)(C)C)C(C)=C1C2(C)C (stereo not shown),LCC6-WT,cytotoxicity,,,IC50,0.00056 µM
Nc1ccn(C2OC(COP(=O)(O)OP(=O)(O)OP(=O)(O)O)C(O)C2O)c(=O)n1 (stereo not shown),pyrG,"enzyme activity, inhibitor",,"wild type, with: UTP 0.05 mM",IC50,> 1000 µM
Cc1noc(C)c1-c1cc(N)c2ncn(Cc3ccc(C4CO4)cc3)c2c1 (stereo not shown),BRD4 BD1,biochemical,,bromodomain 1,IC50,0.03 µM
